Measurements of several laboratories.
Technique: steady-state kinetics
B1: enzyme (Homo sapiens, UniProt Q99518); chain AKKVAVIGAGVSGLISLKCCVDEGLEPTCFERTEDIGGVWRFKENVEDGRASIYQSVVTNTSKEMSCFSDFPMPEDFPNFLHNSKLLEYFRIFAKKFDLLKYIQFQTTVLSVRKCPDFSSSGQWKVVTQSNGKEQSAVFDAVMVCSGHHILPHIPLKSFPGMERFKGQYFHSRQYKHPDGFEGKRILVIGMGNSGSDIAVELSKNAAQVFISTRHGTWVMSRISEDGYPWDSVFHTRFRSMLRNVLPRTAVKWMIEQQMNRWFNHENYGLEPQNKYIMKEPVLNDDVPSRLLCGAIKVKSTVKELTETSAIFEDGTVEENIDVIIFATGYSFSFPFLEDSLVKVENNMVSLYKYIFPAHLDKSTLACIGLIQPLGSIFPTAELQARWVTRVFKGLCSLPSERTMMMDIIKRNEKRIDLFGESQSQTLQTNYVDYLDELALEIGAKPDFCSLLFKDPKLAVRLYFGPCNSYQYRLVGPGQWEGARNAIFTQKQRILKPLKTRALKDSSNFSVSFLLKILGLLAVVVAFFCQLQWS
B2: alanine racemase H125A (Geobacillus stearothermophilus, UniProt P10724); chain MNDFHRDTWAEVDLDAIYDNVENLRRLLPDDTHIMAVVKANAYGHGDVQVARTALEAGASRLAVAFLDEALALREKGIEAPILVLGASRPADAALAAQQRIALTVFRSDWLEEASALYSGPFPIAFHLKMDTGMGRLGVKDEEETKRIVALIERHPHFVLEGLYTHFATADEVNTDYFSYQYTRFLHMLEWLPSRPPLVHCANSAASLRFPDRTFNMVRFGIAMYGLAPSPGIKPLLPYPLKEAFSLHSRLVHVKKLQPGEKVSYGATYTAQTEEWIGTIPIGYADGWLRRLQHFHVLVDGQKAPIVGRICMDQCMIRLPGPLPVGTKVTLIGRQGDEVISIDDVARHLETINYEVPCTISYRVPRIFFRHKRIMEVRNAIGRGESSA
B3: FNO G29W (Thermobifida fusca, UniProt Q47RA9); chain MIMIMASKSSPHDLPDVSGLSIAVLGGTWDQGRGLARRFAMAGHEVILGSRSAERAQAVAAELGEGLPVRGMDNAGAAEAGDVVIVAVPWDGHRALLESLKDVLAGKIVVDCVNPLGFDKRGAYALPVEEGSAAEQAAAILPDSRVVAAFHHVSAVLLLDPEVEKVDLDVLVLGDDREATDVVRALAARIPGVRGVYGGRLRNAHQVEAFTANLISINRRYKAHAGIRITDI
B4: enzyme (Bacillus pumilus, UniProt A8FFI9); chain EARSIAWSVDEFFKNREGTFVIQEVKEKSPWVYNKKRAKERFAPQSTFKVANALIGLQTGAVRDEYDIKYWDGVKREIDNWNRDHTLGSGMRDSVVWYYQAMARDIGEERMNHWVKAIHYGNKDISGGIDQFWLSSTLRISPIEQVRFLKQLYEETLPFDLKNMRTVKRMMVQEEEKHATLYGKTGSGSDIGWYVGFIKHEHKTYILATNIKGTGIEAKDITYRILKKYHLMEASV
B5: speck (Drosophila melanogaster, UniProt Q94521); chain MEDALTVSGKPAACPVDQDCPYTIELIQPEDGEAVIAMLKTFFFKDEPLNTFLDLGECKELEKYSLKPLPDNCSYKAVNKKGEIIGVFLNGLMRRPSPDDVPEKAADSCEHPKFKKILSLMDHVEEQFNIFDVYPDEELILDGKILSVDTNYRGLGIAGRLTERAYEYMRENGINVYHVLCSSHYSARVMEKLGFHEVFRMQFADYKPQGEVVFKPAAPHVGIQVMAKEVGPAKAAQTKL
B6: HARS1 Y454S (Homo sapiens, UniProt P12081); chain MAERAALEELVKLQGERVRGLKQQKASAELIEEEVAKLLKLKAQLGPDESKQKFVLKTPKGTRDYSPRQMAVREKVFDVIIRCFKRHGAEVIDTPVFELKETLMGKYGEDSKLIYDLKDQGGELLSLRYDLTVPFARYLAMNKLTNIKRYHIAKVYRRDNPAMTRGRYREFYQCDFDIAGNFDPMIPDAECLKIMCEILSSLQIGDFLVKVNDRRILDGMFAICGVSDSKFRTICSSVDKLDKVSWEEVKNEMVGEKGLAPEVADRIGDYVQQHGGVSLVEQLLQDPKLSQNKQALEGLGDLKLLFEYLTLFGIDDKISFDLSLARGLDYYTGVIYEAVLLQTPAQAGEEPLGVGSVAAGGRYDGLVGMFDPKGRKVPCVGLSIGVERIFSIVEQRLEALEEKIRTTETQVLVASAQKKLLEERLKLVSELWDAGIKAELLYKKNPKLLNQLQSCEEAGIPLVAIIGEQELKDGVIKLRSVTSREEVDVRREDLVEEIKRRTGQPLCIC
B7: enzyme E385A (Sinorhizobium meliloti, UniProt Q92UV7); chain MTNAEVTIAVRHEPMRIAGRLVDTDDRVEVRYPWNDTVVGTVPAGRAEHAREAFAIAAAYQPKLTRYERQKILLATAEALAARKEEISDVITLELGISKADSLYEVGRAFDVFTLAGQMCIRDDGEIFSCDLTPHGKARKIFTMREPLTAISAITPFNHPLNMVAHKVAPAIATNNCVVVKPTELTPMTALLLADILYEAGLPPEMLSVVTGWPADIGMEMITNPHVDLVTFTGSVPVGKLIAANAHYKRQVLELGGNDPLIILNDLSDDDLARAADLAVAGATKNSGQRCTAVKRILCQESVADRFVPLVLERAKRLRFGDPMDRSTDLGTVIHEKAAALFEERVMRAAEEGADILYHPGRSGALLPPIVVDRVPHQSDLVLEATFGPIIPIVRVPDDDDATITLSNSTAFGLSSGVCTNDYRRMQKYIAGLKVGTVNIWEVPGYRIEMSPFGGIKDSGNGYKEGVIEAMKSFTNVKTFSLPWP
B8: iodotyrosine deiodinase (Haliscomenobacter hydrossis, UniProt F4KU78); chain MKQKPAFIPYAGAQFEPEEMLSKSAEYYQFMDHRRTVREFSNRAIPLEVIENIVMTASTAPSGAHKQPWTFVVVSDPQIKAKIRQAAEKEEFESYNGRMSNEWLEDLQPFGTDWHKPFLEIAPYLIVVFRKAYDVLPDGTQRKNYYVQESVGIACGFLLAAIHQAGLVALTHTPSPMNFLQKILQRPENERPFLLVPVGYPAEGAMVPDLQRKDKAAVMVVY
Chain of UniProt Q9JIP7 (whole entry, looked up): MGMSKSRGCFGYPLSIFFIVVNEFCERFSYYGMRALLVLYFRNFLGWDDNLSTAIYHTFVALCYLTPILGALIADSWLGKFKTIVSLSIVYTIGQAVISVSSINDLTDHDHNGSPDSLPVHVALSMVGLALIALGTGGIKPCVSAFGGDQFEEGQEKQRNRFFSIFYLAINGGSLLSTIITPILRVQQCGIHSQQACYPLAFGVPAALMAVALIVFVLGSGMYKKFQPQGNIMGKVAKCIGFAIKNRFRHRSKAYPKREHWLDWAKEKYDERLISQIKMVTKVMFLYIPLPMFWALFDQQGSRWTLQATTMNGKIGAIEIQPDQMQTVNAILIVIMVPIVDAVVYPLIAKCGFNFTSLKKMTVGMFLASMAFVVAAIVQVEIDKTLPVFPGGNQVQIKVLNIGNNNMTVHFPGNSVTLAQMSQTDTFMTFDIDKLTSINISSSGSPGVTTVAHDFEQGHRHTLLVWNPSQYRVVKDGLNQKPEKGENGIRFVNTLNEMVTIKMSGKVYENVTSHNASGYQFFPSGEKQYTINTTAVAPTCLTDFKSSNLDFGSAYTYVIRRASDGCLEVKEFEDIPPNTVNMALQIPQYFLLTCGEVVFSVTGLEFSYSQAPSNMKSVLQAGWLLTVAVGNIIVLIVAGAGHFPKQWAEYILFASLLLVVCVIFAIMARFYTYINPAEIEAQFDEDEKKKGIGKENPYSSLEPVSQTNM
Chain of UniProt O60656 (whole entry, looked up): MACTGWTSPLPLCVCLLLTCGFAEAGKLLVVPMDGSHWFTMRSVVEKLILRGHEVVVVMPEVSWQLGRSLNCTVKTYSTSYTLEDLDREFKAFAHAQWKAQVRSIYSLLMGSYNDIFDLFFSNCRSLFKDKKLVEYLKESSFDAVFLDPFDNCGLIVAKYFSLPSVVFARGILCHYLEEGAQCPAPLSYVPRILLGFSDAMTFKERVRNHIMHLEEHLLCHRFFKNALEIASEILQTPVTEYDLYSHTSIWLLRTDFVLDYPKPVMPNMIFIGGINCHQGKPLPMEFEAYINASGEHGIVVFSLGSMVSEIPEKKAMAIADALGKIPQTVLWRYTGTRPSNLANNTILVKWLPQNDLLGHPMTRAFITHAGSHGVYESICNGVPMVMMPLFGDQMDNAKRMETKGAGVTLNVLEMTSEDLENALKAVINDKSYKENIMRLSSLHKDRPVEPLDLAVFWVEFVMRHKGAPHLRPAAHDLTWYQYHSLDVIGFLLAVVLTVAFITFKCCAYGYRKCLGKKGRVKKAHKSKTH
Chain of UniProt Q48662 (whole entry, looked up): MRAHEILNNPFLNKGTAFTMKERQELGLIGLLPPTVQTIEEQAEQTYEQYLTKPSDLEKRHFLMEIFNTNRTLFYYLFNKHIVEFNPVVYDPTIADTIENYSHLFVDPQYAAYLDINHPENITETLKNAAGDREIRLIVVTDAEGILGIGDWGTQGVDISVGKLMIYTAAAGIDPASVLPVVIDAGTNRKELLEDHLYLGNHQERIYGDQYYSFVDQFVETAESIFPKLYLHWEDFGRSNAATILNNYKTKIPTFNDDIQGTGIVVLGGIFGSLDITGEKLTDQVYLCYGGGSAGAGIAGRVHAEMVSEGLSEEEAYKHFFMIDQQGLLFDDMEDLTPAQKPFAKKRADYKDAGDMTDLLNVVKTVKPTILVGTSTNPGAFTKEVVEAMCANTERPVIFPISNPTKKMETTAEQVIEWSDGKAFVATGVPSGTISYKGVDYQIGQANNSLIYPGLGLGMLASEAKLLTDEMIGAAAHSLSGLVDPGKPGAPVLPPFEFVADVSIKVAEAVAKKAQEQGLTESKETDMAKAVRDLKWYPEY

`B1 (enzyme)` gave a Km of 440 µM (CN(C)CCCOc1nn(Cc2ccccc2)c2ccccc12; 37 °C, not purified).
`B2 (alanine racemase H125A)` gave a Km of 500 µM (C[C@@H](N)C(=O)O; pH 9, room temperature, added: NAD+ 10 mM).
`B3 (FNO G29W)` gave a Km of 7400 µM (CC(=O)c1ccc[n+](Cc2ccccc2)c1; pH 8, 25 °C, added: F420H2 40 µM).
`enzyme (Lactococcus lactis, UniProt Q48662)` has a Km of 1400 µM (O=C(O)C[C@H](O)C(=O)O; pH 7, 30 °C, apparent).
`UGT1A9 (Homo sapiens, UniProt O60656)` gave a Km of 0.043 µM (COc1ccc(-c2oc3ccc(OC)cc3c(=O)c2O)cc1; pH 7.4, 37 °C).
For `Ptb (Listeria monocytogenes, UniProt Q8Y7B7)`, the Km was 79.9 µM (CCCC(=O)SCCNC(=O)CCNC(=O)[C@H](O)C(C)(C)COP(=O)(O)OP(=O)(O)OC[C@H]1O[C@@H](n2cnc3c(N)ncnc32)[C@H](O)[C@@H]1OP(=O)(O)O; pH 7.5, 25 °C, apparent).
The Km of `B4 (enzyme)` is reported as 4 µM (Cc1onc(-c2ccccc2)c1C(=O)N[C@@H]1C(=O)N2[C@@H]1SC(C)(C)[C@@H]2C(=O)O; pH 7).
For `B5 (speck)`, the Km was 430 µM (CC(=O)SCCNC(=O)CCNC(=O)[C@H](O)C(C)(C)COP(=O)(O)OP(=O)(O)OC[C@H]1O[C@@H](n2cnc3c(N)ncnc32)[C@H](O)[C@@H]1OP(=O)(O)O; pH 7.2, 30 °C).
`B6 (HARS1 Y454S)` has a Km of 4.7 µM (N[C@@H](Cc1c[nH]cn1)C(=O)O; pH 7.5, 37 °C, KCl 150 mM, added: tRNA(His)).
The Km of `B7 (enzyme E385A)` is reported as 370 µM (NC(=O)c1ccc[n+]([C@@H]2O[C@H](COP(=O)(O)OP(=O)(O)OC[C@H]3O[C@@H](n4cnc5c(N)ncnc54)[C@H](O)[C@@H]3O)[C@@H](O)[C@H]2O)c1; pH 7.5, 30 °C, cofactor varied).
For `SLC15A1 (Mus musculus, UniProt Q9JIP7)`, the Km was 2100 µM (CC1=C(C(=O)O)N2C(=O)[C@@H](NC(=O)[C@H](N)c3ccc(O)cc3)[C@H]2SC1; pH 6.5, 31 °C).
For `B8 (iodotyrosine deiodinase)`, the Km was 30 µM (COc1cc(C[C@H](N)C(=O)O)cc(I)c1O; pH 7.4, 25 °C).

Some of these lines once more:
For `B8 (iodotyrosine deiodinase)`, the Km was 30 µM (COc1cc(C[C@H](N)C(=O)O)cc(I)c1O; pH 7.4, 25 °C).
